Results from different studies.
Protocols differ between the studies behind these lines.
Sequence of UniProt Q9BYP7 (whole entry, looked up): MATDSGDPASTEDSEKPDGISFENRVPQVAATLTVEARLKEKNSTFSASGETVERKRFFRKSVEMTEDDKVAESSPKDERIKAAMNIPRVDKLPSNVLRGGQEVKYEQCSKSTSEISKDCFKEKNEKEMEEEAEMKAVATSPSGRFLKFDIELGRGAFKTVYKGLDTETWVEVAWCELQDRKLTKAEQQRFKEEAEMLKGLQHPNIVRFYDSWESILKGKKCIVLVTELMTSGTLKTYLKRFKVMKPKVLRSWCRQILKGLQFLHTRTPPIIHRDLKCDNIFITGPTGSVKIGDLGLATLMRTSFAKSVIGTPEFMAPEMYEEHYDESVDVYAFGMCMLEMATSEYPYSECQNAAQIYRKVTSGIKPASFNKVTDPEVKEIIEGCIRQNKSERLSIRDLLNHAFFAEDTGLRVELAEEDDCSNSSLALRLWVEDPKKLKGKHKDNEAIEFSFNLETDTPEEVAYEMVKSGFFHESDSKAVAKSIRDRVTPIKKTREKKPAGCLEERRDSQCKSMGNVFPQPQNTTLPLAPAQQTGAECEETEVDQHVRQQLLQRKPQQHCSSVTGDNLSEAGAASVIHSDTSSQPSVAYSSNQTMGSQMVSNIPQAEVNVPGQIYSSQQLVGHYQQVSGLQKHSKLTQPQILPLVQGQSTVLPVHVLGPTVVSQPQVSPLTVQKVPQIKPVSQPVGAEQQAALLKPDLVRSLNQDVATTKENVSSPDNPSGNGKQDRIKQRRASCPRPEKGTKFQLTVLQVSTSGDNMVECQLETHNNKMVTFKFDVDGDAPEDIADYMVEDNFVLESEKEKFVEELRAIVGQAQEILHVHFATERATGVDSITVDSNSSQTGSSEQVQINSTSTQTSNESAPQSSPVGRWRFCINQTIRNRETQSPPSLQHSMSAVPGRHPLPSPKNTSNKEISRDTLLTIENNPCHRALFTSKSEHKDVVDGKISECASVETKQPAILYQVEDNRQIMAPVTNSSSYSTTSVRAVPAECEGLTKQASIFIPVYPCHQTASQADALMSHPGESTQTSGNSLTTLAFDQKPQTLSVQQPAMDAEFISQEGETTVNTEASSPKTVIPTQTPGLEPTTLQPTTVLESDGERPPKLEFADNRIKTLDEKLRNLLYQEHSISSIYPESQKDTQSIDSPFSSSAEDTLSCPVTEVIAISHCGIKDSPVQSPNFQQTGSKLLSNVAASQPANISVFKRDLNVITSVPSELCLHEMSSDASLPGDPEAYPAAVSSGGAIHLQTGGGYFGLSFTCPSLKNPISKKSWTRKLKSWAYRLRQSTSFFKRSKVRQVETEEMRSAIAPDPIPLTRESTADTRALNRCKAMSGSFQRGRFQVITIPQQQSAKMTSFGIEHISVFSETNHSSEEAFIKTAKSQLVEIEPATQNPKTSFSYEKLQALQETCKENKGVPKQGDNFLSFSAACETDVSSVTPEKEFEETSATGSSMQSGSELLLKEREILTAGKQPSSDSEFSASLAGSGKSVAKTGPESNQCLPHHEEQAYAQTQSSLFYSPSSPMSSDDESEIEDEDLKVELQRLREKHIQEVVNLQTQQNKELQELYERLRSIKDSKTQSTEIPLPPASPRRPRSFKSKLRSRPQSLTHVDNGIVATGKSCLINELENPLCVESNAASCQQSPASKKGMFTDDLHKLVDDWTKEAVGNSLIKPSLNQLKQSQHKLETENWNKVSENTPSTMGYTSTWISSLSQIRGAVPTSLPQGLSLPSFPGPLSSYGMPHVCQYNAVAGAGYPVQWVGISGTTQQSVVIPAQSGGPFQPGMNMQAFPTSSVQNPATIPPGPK
Sequence of UniProt Q9H422 (whole entry, looked up): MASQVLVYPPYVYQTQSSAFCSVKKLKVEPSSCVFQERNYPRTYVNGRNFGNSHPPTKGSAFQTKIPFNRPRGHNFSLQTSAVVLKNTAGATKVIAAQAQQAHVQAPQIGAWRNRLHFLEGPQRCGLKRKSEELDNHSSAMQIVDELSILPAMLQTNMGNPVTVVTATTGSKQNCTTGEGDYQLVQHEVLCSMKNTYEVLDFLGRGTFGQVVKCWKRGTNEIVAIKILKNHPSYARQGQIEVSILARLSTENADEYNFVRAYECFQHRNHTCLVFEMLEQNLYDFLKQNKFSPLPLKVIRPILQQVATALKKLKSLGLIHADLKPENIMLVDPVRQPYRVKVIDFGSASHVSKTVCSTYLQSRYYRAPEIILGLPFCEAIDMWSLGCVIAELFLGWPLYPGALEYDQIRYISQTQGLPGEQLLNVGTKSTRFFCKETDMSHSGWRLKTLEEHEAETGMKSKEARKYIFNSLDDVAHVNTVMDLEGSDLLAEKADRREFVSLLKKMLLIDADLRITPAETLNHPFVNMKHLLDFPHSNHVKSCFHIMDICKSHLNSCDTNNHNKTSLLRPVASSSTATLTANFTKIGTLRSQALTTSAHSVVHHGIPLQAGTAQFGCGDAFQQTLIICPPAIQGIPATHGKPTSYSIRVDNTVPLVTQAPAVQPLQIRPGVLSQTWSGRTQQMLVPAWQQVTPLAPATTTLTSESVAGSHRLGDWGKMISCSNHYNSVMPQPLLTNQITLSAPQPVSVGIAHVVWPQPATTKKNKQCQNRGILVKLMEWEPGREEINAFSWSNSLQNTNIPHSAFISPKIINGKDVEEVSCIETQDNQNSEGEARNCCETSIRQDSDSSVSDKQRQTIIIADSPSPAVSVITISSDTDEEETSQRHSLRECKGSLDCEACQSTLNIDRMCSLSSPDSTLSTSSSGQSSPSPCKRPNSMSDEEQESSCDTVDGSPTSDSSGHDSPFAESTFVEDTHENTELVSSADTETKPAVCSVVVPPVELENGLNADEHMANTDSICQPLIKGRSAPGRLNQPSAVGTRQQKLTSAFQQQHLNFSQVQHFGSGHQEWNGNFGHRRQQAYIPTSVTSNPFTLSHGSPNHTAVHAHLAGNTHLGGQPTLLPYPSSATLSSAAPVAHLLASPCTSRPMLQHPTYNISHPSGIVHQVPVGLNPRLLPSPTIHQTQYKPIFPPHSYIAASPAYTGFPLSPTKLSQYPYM
Sequence of UniProt Q13873 (whole entry, looked up): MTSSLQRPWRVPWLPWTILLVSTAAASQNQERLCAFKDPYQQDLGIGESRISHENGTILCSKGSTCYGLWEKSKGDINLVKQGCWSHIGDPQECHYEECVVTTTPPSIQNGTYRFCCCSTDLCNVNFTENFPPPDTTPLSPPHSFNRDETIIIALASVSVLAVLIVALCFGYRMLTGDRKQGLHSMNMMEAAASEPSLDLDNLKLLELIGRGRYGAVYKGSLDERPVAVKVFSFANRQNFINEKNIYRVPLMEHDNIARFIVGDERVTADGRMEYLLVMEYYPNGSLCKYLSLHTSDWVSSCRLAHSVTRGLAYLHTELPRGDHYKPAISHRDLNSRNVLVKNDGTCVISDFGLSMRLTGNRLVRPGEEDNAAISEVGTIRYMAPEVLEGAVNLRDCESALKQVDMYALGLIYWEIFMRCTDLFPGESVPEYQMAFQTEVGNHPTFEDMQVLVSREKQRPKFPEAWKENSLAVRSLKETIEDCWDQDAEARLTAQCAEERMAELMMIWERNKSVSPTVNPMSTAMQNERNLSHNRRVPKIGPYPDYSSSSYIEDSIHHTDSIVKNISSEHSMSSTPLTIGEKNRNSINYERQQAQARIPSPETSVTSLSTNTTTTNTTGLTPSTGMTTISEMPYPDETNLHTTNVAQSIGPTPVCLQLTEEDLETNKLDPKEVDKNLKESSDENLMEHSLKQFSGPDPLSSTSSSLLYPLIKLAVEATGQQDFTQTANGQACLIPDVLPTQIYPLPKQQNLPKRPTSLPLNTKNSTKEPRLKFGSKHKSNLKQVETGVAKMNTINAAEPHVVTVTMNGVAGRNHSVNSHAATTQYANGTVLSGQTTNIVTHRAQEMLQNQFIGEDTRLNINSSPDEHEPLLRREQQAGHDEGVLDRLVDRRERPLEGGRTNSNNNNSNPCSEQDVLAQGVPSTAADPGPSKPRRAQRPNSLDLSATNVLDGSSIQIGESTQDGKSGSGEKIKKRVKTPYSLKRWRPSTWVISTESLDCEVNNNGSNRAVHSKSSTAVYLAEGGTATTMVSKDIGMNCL
Sequence of UniProt P57078 (whole entry, looked up): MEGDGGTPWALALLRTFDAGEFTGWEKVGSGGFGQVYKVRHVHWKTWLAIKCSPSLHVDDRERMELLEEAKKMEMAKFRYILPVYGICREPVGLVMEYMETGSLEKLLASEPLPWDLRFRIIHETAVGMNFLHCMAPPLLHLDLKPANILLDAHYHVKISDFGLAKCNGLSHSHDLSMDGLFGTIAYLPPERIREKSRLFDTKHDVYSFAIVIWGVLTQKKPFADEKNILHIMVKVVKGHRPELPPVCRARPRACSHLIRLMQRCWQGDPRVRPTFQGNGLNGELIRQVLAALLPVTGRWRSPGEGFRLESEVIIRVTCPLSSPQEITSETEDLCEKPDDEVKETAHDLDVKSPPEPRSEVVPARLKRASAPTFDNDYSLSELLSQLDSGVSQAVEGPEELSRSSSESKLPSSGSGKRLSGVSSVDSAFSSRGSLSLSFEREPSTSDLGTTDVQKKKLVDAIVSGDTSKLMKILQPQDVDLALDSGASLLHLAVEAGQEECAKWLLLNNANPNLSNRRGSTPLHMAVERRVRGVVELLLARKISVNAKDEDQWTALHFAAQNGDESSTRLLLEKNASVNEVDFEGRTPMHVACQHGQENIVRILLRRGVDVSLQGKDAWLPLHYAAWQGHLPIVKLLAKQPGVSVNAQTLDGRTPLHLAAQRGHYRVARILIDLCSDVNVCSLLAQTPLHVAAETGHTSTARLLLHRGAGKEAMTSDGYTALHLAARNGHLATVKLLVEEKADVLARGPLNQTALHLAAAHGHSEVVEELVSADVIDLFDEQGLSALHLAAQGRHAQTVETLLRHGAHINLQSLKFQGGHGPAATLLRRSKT

Cc1cc([C@@H](C)Nc2ccccc2C(=O)O)c2nc(N3CCC(F)(F)CC3)c(C#N)c(=O)n2c1  remaining binding (BMPR2 (Homo sapiens, UniProt Q13873); binding, competition with immobilised ligand; 10 µM): 41%
C[C@@H](O)[C@H](NC(=O)[C@H](Cc1ccc(O)cc1)NC(=O)[C@H](Cc1ccc(O)cc1)NC(=O)[C@H](CO)NC(=O)[C@H](CCCNC(=N)N)NC(=O)[C@H](Cc1c[nH]cn1)NC(=O)[C@@H](N)Cc1c[nH]c2ccccc12)C(=O)N[C@@H](Cc1c[nH]c2ccccc12)C(=O)N[C@@H](CC(N)=O)C(N)=O  compound remaining (chemical stability; human, serum; 20 µM, 4 h): 0.3%
Cc1ccc(Cn2cc(C(=O)NN)c(=O)c3cc(Oc4ccccc4)ccc32)cc1  compound remaining (metabolic stability; human, liver microsomes; 1 µM, 30 min): > 99%
C[C@@H](O)[C@H](NC(=O)[C@H](Cc1ccc(O)cc1)NC(=O)[C@H](Cc1ccc(O)cc1)NC(=O)[C@H](CO)NC(=O)[C@H](CCCNC(=N)N)NC(=O)[C@H](Cc1c[nH]cn1)NC(=O)[C@@H](N)Cc1c[nH]c2ccccc12)C(=O)N[C@@H](Cc1c[nH]c2ccccc12)C(=O)N[C@@H](CC(N)=O)C(=O)NCCCC[C@H](NC(=O)[C@H](CC(N)=O)NC(=O)[C@H](Cc1c[nH]c2ccccc12)NC(=O)[C@@H](NC(=O)[C@H](Cc1ccc(O)cc1)NC(=O)[C@H](Cc1ccc(O)cc1)NC(=O)[C@H](CO)NC(=O)[C@H](CCCNC(=N)N)NC(=O)[C@H](Cc1c[nH]cn1)NC(=O)[C@@H](N)Cc1c[nH]c2ccccc12)[C@@H](C)O)C(=O)NCCCC[C@H](NC(=O)[C@H](CCCCNC(=O)[C@H](CC(N)=O)NC(=O)[C@H](Cc1c[nH]c2ccccc12)NC(=O)[C@@H](NC(=O)[C@H](Cc1ccc(O)cc1)NC(=O)[C@H](Cc1ccc(O)cc1)NC(=O)[C@H](CO)NC(=O)[C@H](CCCNC(=N)N)NC(=O)[C@H](Cc1c[nH]cn1)NC(=O)[C@@H](N)Cc1c[nH]c2ccccc12)[C@@H](C)O)NC(=O)[C@H](CC(N)=O)NC(=O)[C@H](Cc1c[nH]c2ccccc12)NC(=O)[C@@H](NC(=O)[C@H](Cc1ccc(O)cc1)NC(=O)[C@H](Cc1ccc(O)cc1)NC(=O)[C@H](CO)NC(=O)[C@H](CCCNC(=N)N)NC(=O)[C@H](Cc1c[nH]cn1)NC(=O)[C@@H](N)Cc1c[nH]c2ccccc12)[C@@H](C)O)C(=O)N[C@@H](CCCCN)C(=O)N[C@@H](CCCCN)C(=O)N[C@@H](CCCCN)C(N)=O  compound remaining (chemical stability; human, serum; 20 µM, 1 h): 33%
Cc1ccc(CCC(=O)Nc2nnc(S(N)(=O)=O)s2)cc1  compound remaining (metabolic stability; mouse, liver microsomes; 1 h): 99.9%
O=C(Nc1ccc(CN2CCOCC2)c(C(F)(F)F)c1)c1ccc(C#Cc2cccc3cnccc23)cn1  compound remaining (metabolic stability; mouse, liver microsomes; 10 min): 81.6%
CC(C)[N+](C)(CCOC(=O)C1c2ccccc2Oc2ccccc21)C(C)C  compound remaining (metabolic stability; human, plasma; 30 min): 52.2%
CCCCC(=O)Nc1ccc(-c2ccc3ncn(CCC)c(=O)c3c2)cn1  remaining binding (RIPK4 (Homo sapiens, UniProt P57078); binding, competition with immobilised ligand; 0.5 µM): 100%
CNc1ncc2c(/C=C/C(=O)N3CCC(OC)CC3)nn(Cc3cccc(C(F)(F)F)c3)c2n1  remaining activity (HIPK3 (Homo sapiens, UniProt Q9H422); enzyme activity, inhibitor, radiometric; 1 µM): 96%
O=C(c1ccc(F)cc1)C1CCN(CCn2c(=O)[nH]c3ccccc3c2=O)CC1  compound remaining (metabolic stability; dog, liver microsomes; 30 min): 64.5%
C[C@@H](O)[C@H](NC(=O)[C@H](Cc1ccc(O)cc1)NC(=O)[C@H](Cc1ccc(O)cc1)NC(=O)[C@H](CO)NC(=O)[C@H](CCCNC(=N)N)NC(=O)[C@H](Cc1c[nH]cn1)NC(=O)[C@@H](N)Cc1c[nH]c2ccccc12)C(=O)N[C@@H](Cc1c[nH]c2ccccc12)C(=O)N[C@@H](CC(N)=O)C(=O)NCCCC[C@H](NC(=O)[C@H](CCCCNC(=O)[C@H](CC(N)=O)NC(=O)[C@H](Cc1c[nH]c2ccccc12)NC(=O)[C@@H](NC(=O)[C@H](Cc1ccc(O)cc1)NC(=O)[C@H](Cc1ccc(O)cc1)NC(=O)[C@H](CO)NC(=O)[C@H](CCCNC(=N)N)NC(=O)[C@H](Cc1c[nH]cn1)NC(=O)[C@@H](N)Cc1c[nH]c2ccccc12)[C@@H](C)O)NC(=O)[C@H](CC(N)=O)NC(=O)[C@H](Cc1c[nH]c2ccccc12)NC(=O)[C@@H](NC(=O)[C@H](Cc1ccc(O)cc1)NC(=O)[C@H](Cc1ccc(O)cc1)NC(=O)[C@H](CO)NC(=O)[C@H](CCCNC(=N)N)NC(=O)[C@H](Cc1c[nH]cn1)NC(=O)[C@@H](N)Cc1c[nH]c2ccccc12)[C@@H](C)O)C(=O)N[C@@H](CCCCN)C(=O)N[C@@H](CCCCN)C(N)=O  compound remaining (chemical stability; human, serum; 20 µM, 4 h): 20%
C=CC(=O)N1CCC(COCC(=O)N2CCN(c3nc(-c4cnc(N)nc4C(F)F)nc(N4CCOC[C@@H]4C)n3)CC2)CC1  remaining binding (COQ8B (Homo sapiens, UniProt Q96D53); binding, competition with immobilised ligand; 1 µM): 90%
O=C(O)Cc1ccccc1Nc1c(Cl)cccc1Cl  compound remaining (metabolic stability; human, liver microsomes; 2 µM, 15 min, pH 7.4): 38%
COc1cc(-c2cc(C(C)=O)n3ccccc23)c(OC)cc1Cn1ccnc1  compound remaining (metabolic stability; human, liver microsomes; 1 µM, 1 h, pH 7.4): 86%
COc1cc(-c2cncc3c2CN(C)Cc2cc(N4CCNCC4)ccc2-3)cc(OC)c1OC  remaining activity (WNK3 (Homo sapiens, UniProt Q9BYP7); enzyme activity, inhibitor; 1 µM): 106%
O=C(N1CCCCC1)C12CC(c3ccccc3)(C1)C2  compound remaining (metabolic stability; human, liver microsomes; 2 µM, 40 min, pH 7.4): 67%

For quick reference, copied from above:
O=C(Nc1ccc(CN2CCOCC2)c(C(F)(F)F)c1)c1ccc(C#Cc2cccc3cnccc23)cn1  compound remaining (metabolic stability; mouse, liver microsomes; 10 min): 81.6%
CC(C)[N+](C)(CCOC(=O)C1c2ccccc2Oc2ccccc21)C(C)C  compound remaining (metabolic stability; human, plasma; 30 min): 52.2%
